# Experimental data pooled from the literature.
# Parts stem from different laboratories: compare values within a part only. Values joined by “and” are separate records of one study, mostly repeats; a detail may differ.
# UniProt Q99759, sequence (whole entry, looked up): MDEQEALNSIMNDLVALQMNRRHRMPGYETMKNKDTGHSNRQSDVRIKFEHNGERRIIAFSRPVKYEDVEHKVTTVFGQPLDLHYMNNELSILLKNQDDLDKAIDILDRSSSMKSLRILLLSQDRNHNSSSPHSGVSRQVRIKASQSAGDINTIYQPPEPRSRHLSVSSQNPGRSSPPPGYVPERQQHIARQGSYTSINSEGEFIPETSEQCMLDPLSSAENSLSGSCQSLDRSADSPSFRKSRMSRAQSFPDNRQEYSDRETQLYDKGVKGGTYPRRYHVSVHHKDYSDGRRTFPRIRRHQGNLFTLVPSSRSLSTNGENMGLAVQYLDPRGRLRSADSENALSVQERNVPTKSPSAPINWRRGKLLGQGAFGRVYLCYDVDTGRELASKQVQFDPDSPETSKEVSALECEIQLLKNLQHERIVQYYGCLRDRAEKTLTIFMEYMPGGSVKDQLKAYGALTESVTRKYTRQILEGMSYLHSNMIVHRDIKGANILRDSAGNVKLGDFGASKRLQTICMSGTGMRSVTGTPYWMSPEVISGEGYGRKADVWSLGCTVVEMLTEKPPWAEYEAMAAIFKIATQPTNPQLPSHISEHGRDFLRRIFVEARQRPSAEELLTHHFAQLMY
# UniProt O14920, sequence (whole entry, looked up): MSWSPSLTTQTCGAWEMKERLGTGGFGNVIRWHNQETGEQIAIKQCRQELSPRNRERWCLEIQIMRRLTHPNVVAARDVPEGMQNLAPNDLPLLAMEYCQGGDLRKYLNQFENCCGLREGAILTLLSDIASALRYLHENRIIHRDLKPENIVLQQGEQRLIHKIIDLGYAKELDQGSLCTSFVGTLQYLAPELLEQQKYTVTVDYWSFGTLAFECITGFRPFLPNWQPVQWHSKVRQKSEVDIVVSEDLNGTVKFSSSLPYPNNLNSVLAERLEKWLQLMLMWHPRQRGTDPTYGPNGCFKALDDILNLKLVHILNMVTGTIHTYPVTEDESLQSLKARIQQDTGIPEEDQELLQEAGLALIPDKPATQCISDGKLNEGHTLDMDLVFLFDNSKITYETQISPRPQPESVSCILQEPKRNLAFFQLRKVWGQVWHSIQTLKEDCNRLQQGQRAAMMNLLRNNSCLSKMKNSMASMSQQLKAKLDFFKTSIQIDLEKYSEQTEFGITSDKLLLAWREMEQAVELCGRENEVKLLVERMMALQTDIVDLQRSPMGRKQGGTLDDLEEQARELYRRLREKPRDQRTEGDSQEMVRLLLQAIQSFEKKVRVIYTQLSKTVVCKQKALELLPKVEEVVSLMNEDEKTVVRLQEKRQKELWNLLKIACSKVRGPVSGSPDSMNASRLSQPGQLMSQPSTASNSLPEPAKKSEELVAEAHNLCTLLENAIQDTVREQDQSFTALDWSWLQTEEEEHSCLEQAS
# UniProt P07550, sequence (whole entry, looked up): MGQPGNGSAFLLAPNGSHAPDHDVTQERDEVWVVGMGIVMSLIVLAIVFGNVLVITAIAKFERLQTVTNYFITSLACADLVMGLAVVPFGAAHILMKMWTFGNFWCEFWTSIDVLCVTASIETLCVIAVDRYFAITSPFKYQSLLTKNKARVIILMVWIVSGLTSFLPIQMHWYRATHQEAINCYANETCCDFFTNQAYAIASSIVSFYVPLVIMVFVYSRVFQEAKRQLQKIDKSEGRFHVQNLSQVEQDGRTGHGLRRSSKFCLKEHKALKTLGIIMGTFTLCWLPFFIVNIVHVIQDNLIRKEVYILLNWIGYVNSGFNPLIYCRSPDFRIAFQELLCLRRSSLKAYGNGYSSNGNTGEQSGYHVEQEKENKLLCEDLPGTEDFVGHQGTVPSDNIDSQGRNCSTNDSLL
# UniProt Q14164, sequence (whole entry, looked up): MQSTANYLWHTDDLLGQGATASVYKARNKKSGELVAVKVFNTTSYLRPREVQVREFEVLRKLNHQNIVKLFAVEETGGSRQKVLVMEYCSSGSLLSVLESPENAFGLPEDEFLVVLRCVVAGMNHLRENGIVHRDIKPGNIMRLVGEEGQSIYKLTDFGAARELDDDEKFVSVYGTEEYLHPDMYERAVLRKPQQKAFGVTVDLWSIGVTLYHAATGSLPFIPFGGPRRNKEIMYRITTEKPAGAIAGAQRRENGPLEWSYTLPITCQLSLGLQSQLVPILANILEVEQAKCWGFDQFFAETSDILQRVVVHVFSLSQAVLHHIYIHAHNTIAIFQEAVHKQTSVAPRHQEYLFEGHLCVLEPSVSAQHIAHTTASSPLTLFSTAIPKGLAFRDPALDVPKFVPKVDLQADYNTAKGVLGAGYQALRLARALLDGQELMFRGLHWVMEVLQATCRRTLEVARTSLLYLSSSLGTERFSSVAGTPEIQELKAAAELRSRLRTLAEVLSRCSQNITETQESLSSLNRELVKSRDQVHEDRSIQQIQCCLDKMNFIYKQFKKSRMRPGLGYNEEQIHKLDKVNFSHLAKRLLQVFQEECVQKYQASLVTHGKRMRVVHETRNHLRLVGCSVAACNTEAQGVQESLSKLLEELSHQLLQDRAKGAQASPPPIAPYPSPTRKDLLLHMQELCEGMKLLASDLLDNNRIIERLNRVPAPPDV
# UniProt Q9Y5N1, sequence (whole entry, looked up): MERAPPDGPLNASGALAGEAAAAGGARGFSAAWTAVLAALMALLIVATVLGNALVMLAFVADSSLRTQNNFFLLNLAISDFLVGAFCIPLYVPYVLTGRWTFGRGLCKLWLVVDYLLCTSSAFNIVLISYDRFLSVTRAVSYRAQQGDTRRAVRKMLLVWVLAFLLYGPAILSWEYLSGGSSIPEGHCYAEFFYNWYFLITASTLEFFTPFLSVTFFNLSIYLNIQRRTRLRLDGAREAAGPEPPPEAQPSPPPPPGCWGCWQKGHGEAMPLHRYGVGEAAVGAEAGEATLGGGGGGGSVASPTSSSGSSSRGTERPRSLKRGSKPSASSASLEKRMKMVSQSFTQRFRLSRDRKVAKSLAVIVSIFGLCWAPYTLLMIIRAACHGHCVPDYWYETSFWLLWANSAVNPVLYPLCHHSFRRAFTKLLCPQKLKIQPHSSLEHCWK
# UniProt O94804, sequence (whole entry, looked up): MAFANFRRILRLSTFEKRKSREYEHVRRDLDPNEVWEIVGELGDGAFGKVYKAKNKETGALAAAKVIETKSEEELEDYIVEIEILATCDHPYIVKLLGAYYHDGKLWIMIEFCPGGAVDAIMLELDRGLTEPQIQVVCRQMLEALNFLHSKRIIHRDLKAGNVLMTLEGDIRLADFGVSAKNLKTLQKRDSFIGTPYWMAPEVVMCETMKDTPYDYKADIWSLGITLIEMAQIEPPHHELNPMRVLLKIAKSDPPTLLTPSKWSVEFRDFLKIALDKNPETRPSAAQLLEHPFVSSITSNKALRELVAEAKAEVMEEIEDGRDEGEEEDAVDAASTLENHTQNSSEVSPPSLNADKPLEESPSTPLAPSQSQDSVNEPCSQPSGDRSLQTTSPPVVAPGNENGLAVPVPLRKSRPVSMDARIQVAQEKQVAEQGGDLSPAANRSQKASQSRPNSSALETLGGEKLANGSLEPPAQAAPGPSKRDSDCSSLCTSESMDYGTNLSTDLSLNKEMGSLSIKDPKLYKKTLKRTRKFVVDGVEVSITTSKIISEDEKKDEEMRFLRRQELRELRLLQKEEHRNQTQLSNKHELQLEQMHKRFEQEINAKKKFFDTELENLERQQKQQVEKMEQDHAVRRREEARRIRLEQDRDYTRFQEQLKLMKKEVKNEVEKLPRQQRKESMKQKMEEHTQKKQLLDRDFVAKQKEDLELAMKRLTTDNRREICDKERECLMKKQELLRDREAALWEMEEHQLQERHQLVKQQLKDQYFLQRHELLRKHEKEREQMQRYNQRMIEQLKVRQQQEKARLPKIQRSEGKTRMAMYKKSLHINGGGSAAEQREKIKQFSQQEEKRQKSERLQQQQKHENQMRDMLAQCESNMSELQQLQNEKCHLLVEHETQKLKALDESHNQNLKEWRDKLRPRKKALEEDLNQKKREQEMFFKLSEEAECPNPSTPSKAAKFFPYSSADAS
# UniProt P45984, sequence (whole entry, looked up): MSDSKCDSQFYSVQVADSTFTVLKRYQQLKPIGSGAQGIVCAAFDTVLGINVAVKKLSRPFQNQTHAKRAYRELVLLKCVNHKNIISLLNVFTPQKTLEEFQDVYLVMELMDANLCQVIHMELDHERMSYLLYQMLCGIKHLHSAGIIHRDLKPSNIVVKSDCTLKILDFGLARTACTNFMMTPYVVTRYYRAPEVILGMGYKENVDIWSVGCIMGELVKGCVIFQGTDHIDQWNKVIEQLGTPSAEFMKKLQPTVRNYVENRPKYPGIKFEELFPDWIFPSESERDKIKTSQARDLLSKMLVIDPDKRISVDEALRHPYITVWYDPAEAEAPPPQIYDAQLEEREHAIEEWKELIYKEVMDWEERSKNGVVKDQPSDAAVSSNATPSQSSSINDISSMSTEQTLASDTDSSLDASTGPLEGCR
# UniProt P07948, sequence (whole entry, looked up): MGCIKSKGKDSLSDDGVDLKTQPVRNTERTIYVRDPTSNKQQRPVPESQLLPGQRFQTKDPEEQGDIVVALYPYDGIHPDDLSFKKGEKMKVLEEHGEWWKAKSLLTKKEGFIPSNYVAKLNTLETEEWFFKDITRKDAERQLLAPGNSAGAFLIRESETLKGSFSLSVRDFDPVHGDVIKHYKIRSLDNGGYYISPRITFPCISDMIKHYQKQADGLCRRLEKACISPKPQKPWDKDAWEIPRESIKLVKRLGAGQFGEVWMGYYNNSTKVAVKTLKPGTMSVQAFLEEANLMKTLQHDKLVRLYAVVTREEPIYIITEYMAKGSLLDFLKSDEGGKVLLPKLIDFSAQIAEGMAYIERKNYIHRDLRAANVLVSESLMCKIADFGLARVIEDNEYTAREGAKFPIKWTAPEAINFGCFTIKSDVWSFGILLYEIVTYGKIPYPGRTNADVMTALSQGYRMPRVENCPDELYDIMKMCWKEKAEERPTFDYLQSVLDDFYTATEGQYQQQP

# Series 1
# SMILES: O=C1NC(=O)/C(=C/c2ccc3c(c2)OC(F)(F)O3)S1
# Effect on: enzyme activity
# Action: inhibitor
# Tested at: 0.5 µM
# Reference: control
target,remaining activity
"cGMP-dependent protein kinase 1, isoform beta (PRKG1, Homo sapiens, UniProt Q13976)",109%
"TGF-beta receptor type-2 (TGFBR2, Homo sapiens, UniProt P37173)",107%
"Protein kinase C alpha type (PRKCA, Homo sapiens, UniProt P17252)",106%
"Cyclin-dependent kinase 4, with cyclin D1 (CDK4, Homo sapiens, UniProt P11802)",97.1%
"Calcium/calmodulin-dependent protein kinase type II subunit delta (CAMK2D, Homo sapiens, UniProt Q13557)",97.1%
"Mitogen-activated protein kinase kinase kinase 3 (MAP3K3, Homo sapiens, UniProt Q99759)",103%
"Death-associated protein kinase 2 (DAPK2, Homo sapiens, UniProt Q9UIK4)",105%
"Serine/threonine-protein kinase STK11 (STK11, Homo sapiens, UniProt Q15831)",96.9%
"TGF-beta receptor type-1 (TGFBR1, Homo sapiens, UniProt P36897)",102%
"Inhibitor of nuclear factor kappa-B kinase subunit beta (IKBKB, Homo sapiens, UniProt O14920)",96.1%
"Protein kinase C beta type, isoform beta-I (PRKCB, Homo sapiens, UniProt P05771)",97.7%
"cAMP-dependent protein kinase catalytic subunit alpha (PRKACA, Homo sapiens, UniProt P17612)",101%
"Tyrosine-protein kinase Lyn, isoform B (LYN, Homo sapiens, UniProt P07948)",98.1%
"STE20/SPS1-related proline-alanine-rich protein kinase (STK39, Homo sapiens, UniProt Q9UEW8)",110%
"Calcium/calmodulin-dependent protein kinase kinase 2 (CAMKK2, Homo sapiens, UniProt Q96RR4)",82.9%
"Serine/threonine-protein kinase 10 (STK10, Homo sapiens, UniProt O94804)",98.6%
"Mitogen-activated protein kinase 9 (MAPK9, Homo sapiens, UniProt P45984)",90.9%
"G protein-coupled receptor kinase 3 (GRK3, Homo sapiens, UniProt P35626)",102%
"Serine/threonine-protein kinase OSR1 (OXSR1, Homo sapiens, UniProt O95747)",97.1%
"Inhibitor of nuclear factor kappa-B kinase subunit epsilon (IKBKE, Homo sapiens, UniProt Q14164)",101%
"Death-associated protein kinase 1 (DAPK1, Homo sapiens, UniProt P53355)",120%
"Cyclin-dependent kinase 5, with p25 (CDK5, Homo sapiens, UniProt Q00535)",89.7%
"Serine/threonine-protein kinase Chk2 (CHEK2, Homo sapiens, UniProt O96017)",97.9%

# Series 2
# SMILES: COc1ccc(-c2c(Nc3ccccn3)[nH]c3c(C4=CCCCC4)c(-c4ccccc4)nn3c2=O)cc1
# Species: cancer patients
# Sample: plasma
# Route: oral
# Time: cycle 0 day -3
# Setting: single dose
dose,"Cmax, geometric mean"
150 mg,1460 ng/mL
400 mg,1260 ng/mL
100 mg,1300 ng/mL
200 mg,1530 ng/mL
50 mg,521 ng/mL

# Series 3
# Species: human
# Sample: microsomes or S9
# Tested at: 2 µM
# Time: 0.5 h
Structure (SMILES),remaining compound [%]
Cc1c(Br)c(-c2nc3c4ccccc4ncn3n2)nn1C,8.36
Cc1ncn(CCS(=O)(=O)c2ccc(C(C)(C)C)cc2)c(=O)c1C,81.2
CCOC(=O)c1c(C)c(CCC(=O)NCCN2CCCCC2)n(C)c1C,64.3
CCC(C)C1Nc2ccc(C(=O)NCC(C)CN(CC)CC)cc2NC1=O (stereo not drawn),90
COC(=O)C1=C(\N2CCOCC2)CCCC/C=C\1C(=O)OC,62.3
CCOC(=O)N1CCN(C2CCCc3sccc32)CC1 (stereo not drawn),2.83
O=C(N1CCOC2(CCCC2)C1)C1(c2ccccc2)CCOCC1,12.6
N#Cc1c(NC(=O)c2n[nH]c(-n3cnnc3)n2)sc2c1CCCC2,> 100
O=C(Nc1ccc(N2CCCS2(=O)=O)cc1)c1cc(C2CC2)nc2ccccc12,77.9

# Series 4
# SMILES: CNCc1ccccc1-c1csc([C@H](C)Nc2nc(C)nc3cc(OC)c(OC)cc23)c1
# Effect on: binding
# Method: radioligand binding
# Tested at: 10 µM
target,inhibition [%]
"5-hydroxytryptamine receptor 2B (HTR2B, Homo sapiens, UniProt P41595)",97.3
"Sigma non-opioid intracellular receptor 1 (SIGMAR1, Homo sapiens, UniProt Q99720)",49
"5-hydroxytryptamine receptor 6 (HTR6, Homo sapiens, UniProt P50406)",20.2
"D(3) dopamine receptor (DRD3, Homo sapiens, UniProt P35462)",64.8
"Sigma intracellular receptor 2 (TMEM97, Homo sapiens, UniProt Q5BJF2)",83.2
"Histamine H3 receptor (HRH3, Homo sapiens, UniProt Q9Y5N1)",24.6
"Muscarinic acetylcholine receptor M5 (CHRM5, Homo sapiens, UniProt P08912)",54.1
"Alpha-1A adrenergic receptor (ADRA1A, Homo sapiens, UniProt P35348)",83.4
"Beta-2 adrenergic receptor (ADRB2, Homo sapiens, UniProt P07550)",18.2
"D(2) dopamine receptor (DRD2, Homo sapiens, UniProt P14416)",50.6
"Alpha-2A adrenergic receptor (ADRA2A, Homo sapiens, UniProt P08913)",93.5
"D(4) dopamine receptor (DRD4, Homo sapiens, UniProt P21917)",31

# Series 5
# Structure (SMILES): CC(C)(C(=O)O)[C@H](NC(=O)Cc1cccc(I)c1)c1ccc2oc(=O)[nH]c2c1
# Method: Incucyte 3D growth
# Tested at: 30 µM
# Reading: higher = more growth
cell line,time,spheroid area
MEL-JUSO,480.52 h,2.32e+07 a.u. and 7.28e+07 a.u. and 1.71e+07 a.u. and 5.19e+07 a.u. and 2.79e+07 a.u. and 2.92e+07 a.u.
MEL-JUSO,414.52 h,3.22e+07 a.u. and 4.49e+07 a.u. and 2.57e+07 a.u. and 3.15e+07 a.u. and 4e+07 a.u. and 7.45e+07 a.u.
A375,54.52 h,2.85e+07 a.u. and 2.87e+07 a.u. and 3.11e+07 a.u. and 3e+07 a.u. and 3.32e+07 a.u. and 2.18e+07 a.u.
PC-9,216 h,1.81e+09 a.u. and 1.74e+09 a.u. and 1.76e+09 a.u. and 1.85e+09 a.u. and 1.78e+09 a.u. and 1.83e+09 a.u.
A375,504.52 h,1.39e+08 a.u. and 1.42e+08 a.u. and 1.55e+08 a.u. and 1.76e+08 a.u. and 1.51e+08 a.u. and 1.45e+08 a.u.

# For quick reference, copied from above (series 1):
target,remaining activity
"Protein kinase C alpha type (PRKCA, Homo sapiens, UniProt P17252)",106%
"Mitogen-activated protein kinase 9 (MAPK9, Homo sapiens, UniProt P45984)",90.9%
"Inhibitor of nuclear factor kappa-B kinase subunit epsilon (IKBKE, Homo sapiens, UniProt Q14164)",101%
"Calcium/calmodulin-dependent protein kinase kinase 2 (CAMKK2, Homo sapiens, UniProt Q96RR4)",82.9%
"Tyrosine-protein kinase Lyn, isoform B (LYN, Homo sapiens, UniProt P07948)",98.1%
"cGMP-dependent protein kinase 1, isoform beta (PRKG1, Homo sapiens, UniProt Q13976)",109%
"cAMP-dependent protein kinase catalytic subunit alpha (PRKACA, Homo sapiens, UniProt P17612)",101%
